Published values gathered from unrelated publications.
Each line is one published result; not all experiments were run side by side. Several values in a cell are separate wells, animals, samples, runs or records. Numbers after ± are the reported error.
lasR: Transcriptional activator protein LasR (lasR, Pseudomonas aeruginosa, UniProt P25084)
sdiA: Regulatory protein SdiA (sdiA, Escherichia coli, UniProt P07026)
UniProt P07026, sequence (whole entry, looked up): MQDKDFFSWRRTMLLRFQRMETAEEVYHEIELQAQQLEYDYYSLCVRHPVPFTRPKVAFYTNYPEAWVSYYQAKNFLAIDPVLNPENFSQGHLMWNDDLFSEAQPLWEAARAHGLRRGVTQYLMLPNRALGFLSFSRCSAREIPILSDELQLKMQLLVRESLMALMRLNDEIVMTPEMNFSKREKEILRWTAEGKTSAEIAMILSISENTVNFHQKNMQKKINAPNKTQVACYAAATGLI
KEAP1: Kelch-like ECH-associated protein 1 (KEAP1, Homo sapiens, UniProt Q14145)
UniProt Q14145, sequence (whole entry, looked up): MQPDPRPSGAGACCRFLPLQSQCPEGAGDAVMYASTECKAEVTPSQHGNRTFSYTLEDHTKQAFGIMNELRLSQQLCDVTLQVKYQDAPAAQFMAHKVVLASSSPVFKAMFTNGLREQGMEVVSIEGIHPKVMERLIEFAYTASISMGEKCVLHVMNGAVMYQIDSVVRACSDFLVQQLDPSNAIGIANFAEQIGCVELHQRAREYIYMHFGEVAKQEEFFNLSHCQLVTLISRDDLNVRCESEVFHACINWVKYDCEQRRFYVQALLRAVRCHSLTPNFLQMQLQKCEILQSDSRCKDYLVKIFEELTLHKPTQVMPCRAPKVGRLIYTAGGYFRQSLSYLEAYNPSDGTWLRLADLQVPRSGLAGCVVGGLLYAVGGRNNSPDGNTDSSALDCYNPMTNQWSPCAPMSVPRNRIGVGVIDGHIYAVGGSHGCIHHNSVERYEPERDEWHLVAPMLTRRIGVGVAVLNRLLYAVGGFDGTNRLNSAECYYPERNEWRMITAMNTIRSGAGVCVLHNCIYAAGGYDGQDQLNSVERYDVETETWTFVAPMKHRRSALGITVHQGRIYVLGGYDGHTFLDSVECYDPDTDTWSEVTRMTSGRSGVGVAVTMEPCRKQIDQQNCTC
Uncharacterized hydrolase SAUSA300_2518: Uncharacterized hydrolase SAUSA300_2518 (Staphylococcus aureus, UniProt Q2FDS6)
Oprm1: Mu-type opioid receptor (Oprm1, Rattus norvegicus, UniProt P33535)
UniProt P33535, sequence (whole entry, looked up): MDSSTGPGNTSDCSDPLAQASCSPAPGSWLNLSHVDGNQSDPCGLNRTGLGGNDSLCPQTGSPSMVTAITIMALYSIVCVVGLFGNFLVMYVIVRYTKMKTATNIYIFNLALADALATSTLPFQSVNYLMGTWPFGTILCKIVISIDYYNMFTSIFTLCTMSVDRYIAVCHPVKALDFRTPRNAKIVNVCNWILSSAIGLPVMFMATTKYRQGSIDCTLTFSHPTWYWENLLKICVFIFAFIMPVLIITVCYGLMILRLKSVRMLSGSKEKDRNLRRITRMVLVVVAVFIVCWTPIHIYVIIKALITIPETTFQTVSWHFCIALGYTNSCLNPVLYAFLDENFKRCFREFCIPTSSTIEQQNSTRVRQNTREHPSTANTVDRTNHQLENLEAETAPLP
CSNK1D: Casein kinase I isoform delta (CSNK1D, Homo sapiens, UniProt P48730)
UniProt Q9Y2J8, sequence (whole entry, looked up): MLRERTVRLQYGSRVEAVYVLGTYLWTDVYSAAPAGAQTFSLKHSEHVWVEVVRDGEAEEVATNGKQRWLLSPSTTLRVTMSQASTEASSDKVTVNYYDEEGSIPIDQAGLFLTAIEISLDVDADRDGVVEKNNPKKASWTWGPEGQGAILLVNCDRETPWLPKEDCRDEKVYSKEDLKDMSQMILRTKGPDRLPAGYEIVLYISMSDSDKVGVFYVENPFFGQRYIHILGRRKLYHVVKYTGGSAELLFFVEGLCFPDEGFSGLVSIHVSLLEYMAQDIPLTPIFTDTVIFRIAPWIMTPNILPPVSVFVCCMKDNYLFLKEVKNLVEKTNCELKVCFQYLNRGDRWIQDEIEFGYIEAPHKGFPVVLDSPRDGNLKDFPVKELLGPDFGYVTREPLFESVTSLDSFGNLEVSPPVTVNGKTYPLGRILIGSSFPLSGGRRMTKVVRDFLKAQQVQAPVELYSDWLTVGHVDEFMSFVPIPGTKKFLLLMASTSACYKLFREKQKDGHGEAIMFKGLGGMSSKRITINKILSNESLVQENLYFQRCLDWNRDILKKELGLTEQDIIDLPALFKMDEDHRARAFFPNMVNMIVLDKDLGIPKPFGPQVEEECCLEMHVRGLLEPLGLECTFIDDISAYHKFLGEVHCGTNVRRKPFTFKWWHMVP
UniProt P48730, sequence (whole entry, looked up): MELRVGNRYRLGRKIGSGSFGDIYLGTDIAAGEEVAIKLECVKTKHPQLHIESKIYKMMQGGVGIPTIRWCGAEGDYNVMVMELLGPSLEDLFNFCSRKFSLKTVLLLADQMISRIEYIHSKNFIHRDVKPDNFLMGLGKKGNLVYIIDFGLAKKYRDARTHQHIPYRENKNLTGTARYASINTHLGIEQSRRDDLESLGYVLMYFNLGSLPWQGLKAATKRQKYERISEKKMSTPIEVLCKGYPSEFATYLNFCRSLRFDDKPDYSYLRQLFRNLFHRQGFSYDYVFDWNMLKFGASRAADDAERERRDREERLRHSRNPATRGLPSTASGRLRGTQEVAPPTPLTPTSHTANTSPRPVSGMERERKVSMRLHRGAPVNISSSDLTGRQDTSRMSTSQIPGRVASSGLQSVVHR
UniProt Q80UX8, sequence (whole entry, looked up): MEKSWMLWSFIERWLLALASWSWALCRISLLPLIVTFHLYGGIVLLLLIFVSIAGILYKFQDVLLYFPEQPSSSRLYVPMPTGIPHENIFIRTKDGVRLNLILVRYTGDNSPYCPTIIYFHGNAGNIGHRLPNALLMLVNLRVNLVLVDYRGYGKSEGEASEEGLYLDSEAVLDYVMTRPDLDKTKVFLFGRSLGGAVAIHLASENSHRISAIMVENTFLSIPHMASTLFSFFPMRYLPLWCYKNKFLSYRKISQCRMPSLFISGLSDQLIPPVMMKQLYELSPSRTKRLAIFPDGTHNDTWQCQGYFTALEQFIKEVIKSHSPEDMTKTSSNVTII
UniProt Q99755, sequence (whole entry, looked up): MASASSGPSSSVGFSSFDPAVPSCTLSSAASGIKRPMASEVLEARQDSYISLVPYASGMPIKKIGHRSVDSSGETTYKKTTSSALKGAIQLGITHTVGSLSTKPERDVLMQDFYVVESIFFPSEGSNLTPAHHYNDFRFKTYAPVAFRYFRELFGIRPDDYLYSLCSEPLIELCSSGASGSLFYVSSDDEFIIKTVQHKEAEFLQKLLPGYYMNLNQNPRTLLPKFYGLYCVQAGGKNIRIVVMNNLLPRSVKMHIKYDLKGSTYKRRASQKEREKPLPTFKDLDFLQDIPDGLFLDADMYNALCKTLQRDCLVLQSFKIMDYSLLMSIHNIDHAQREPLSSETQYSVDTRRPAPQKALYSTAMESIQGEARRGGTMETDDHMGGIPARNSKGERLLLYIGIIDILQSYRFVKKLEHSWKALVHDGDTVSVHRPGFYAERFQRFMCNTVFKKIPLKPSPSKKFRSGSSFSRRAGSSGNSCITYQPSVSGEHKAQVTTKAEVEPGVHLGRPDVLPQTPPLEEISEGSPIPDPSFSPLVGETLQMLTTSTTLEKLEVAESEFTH
UniProt Q8K1N1, sequence (whole entry, looked up): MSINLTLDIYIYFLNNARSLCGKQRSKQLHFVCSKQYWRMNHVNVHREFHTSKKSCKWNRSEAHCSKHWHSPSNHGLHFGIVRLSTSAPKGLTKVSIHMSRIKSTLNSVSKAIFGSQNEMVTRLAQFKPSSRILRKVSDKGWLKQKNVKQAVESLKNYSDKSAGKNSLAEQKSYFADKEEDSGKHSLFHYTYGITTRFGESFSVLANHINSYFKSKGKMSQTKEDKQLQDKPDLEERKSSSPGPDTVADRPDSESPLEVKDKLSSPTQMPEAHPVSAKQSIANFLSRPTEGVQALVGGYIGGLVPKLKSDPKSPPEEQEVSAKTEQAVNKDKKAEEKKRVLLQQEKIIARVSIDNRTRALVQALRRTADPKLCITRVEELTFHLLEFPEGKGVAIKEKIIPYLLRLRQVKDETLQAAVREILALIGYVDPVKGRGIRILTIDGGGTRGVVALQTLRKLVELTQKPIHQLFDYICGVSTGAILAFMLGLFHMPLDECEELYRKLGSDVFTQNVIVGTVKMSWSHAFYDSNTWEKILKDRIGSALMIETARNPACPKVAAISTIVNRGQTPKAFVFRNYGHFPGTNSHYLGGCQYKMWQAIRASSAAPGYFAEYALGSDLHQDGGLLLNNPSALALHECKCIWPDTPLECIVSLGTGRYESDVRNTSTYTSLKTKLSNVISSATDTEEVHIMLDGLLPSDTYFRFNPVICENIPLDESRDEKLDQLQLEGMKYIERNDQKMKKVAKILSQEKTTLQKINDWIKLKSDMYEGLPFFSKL
UniProt P0A988, sequence (whole entry, unmodified, looked up): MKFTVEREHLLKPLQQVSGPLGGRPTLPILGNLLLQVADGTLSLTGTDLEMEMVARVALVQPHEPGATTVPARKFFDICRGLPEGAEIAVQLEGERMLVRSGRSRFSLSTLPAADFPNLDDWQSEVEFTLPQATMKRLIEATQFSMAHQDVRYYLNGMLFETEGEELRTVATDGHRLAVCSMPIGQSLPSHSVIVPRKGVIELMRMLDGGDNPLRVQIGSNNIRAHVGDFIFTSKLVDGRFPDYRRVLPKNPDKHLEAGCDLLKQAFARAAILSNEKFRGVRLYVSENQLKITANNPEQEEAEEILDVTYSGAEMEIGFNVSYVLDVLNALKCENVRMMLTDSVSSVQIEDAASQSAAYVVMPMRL
UniProt Q96AD5, sequence (whole entry, looked up): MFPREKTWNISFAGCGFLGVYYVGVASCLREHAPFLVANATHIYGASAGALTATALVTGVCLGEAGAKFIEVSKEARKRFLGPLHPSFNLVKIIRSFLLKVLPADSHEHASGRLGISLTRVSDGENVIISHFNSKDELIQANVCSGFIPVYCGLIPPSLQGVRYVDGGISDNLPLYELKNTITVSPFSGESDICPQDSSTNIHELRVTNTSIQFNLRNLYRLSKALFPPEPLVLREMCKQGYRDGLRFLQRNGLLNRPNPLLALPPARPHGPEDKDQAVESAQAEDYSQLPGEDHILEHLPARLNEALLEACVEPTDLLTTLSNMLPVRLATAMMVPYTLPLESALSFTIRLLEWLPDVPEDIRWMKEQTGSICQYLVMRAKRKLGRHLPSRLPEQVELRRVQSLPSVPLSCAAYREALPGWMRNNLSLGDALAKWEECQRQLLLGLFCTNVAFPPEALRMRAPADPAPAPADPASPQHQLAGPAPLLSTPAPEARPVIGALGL

| Compound | target | assay | test system | setting | how to read | endpoint | value |
| --- | --- | --- | --- | --- | --- | --- | --- |
| Cc1cc(C)cc(COc2cc3c(cc2OCc2cc(C)cc(C)c2)C2CC(O)(Cc4cn(CCCCCCNC(=O)CNc5cccc6c5C(=O)N(C5CCC(=O)NC5=O)C6=O)nn4)CC(C)N2CC3)c1 (racemic) | Rab GDP dissociation inhibitor beta (Homo sapiens, UniProt P50395) | degrader, Western blot | PC-3 | 2 µM, 24 h | – | degradation | 6% |
| CCCC(=O)CC(=O)N[C@H]1CCOC1=O | lasR | reporter gene, agonist | Escherichia coli JLD271 | 10 µM, pSC11 and pJN105L plasmids | reference: OdDHL at same concentration | agonist activity | -4% |
| O=C(Cc1ccc(Br)cc1)N[C@H]1CCSC1=O | sdiA | – | – | – | – | Emax | 91% |
| CC(C)[C@@H]1NC(=O)[C@H](CCC(=O)O)NC(=O)CNC(=O)[C@H]([C@@H](C)O)NC(=O)[C@H](CCC(=O)O)NC(=O)[C@H](CCC(=O)O)NC(=O)[C@H](CC(=O)O)NC(=O)[C@H](C(C)C)NC(=O)[C@H]([C@@H](C)O)NC(=O)CNC(=O)[C@H](CC(=O)O)NC(=O)[C@H](CC(N)=O)NC(=O)[C@H](Cc2ccc(O)cc2)NC1=O | KEAP1 | Keap1-Nrf2 binding, inhibitor, competitive FP | – | 1.562 µM, 30 min, added: Nrf2 peptide probe | lower = stronger inhibition | fluorescence polarization | 0.094 a.u. and 0.0479 a.u. |
| N[C@H](C(=O)N1CCCC1)C1CCN(c2nccc3c(-c4ncc(Cl)cc4Cl)cccc23)CC1 | PADI2 (Homo sapiens, UniProt Q9Y2J8) | enzyme activity | – | 0.6144 µM, low-affinity site, added: Ca2+ 0.25 mM | – | kcat | 0.175 s⁻¹ and 0.117 s⁻¹ |
| C=CC(=O)NC[C@H](NC(=O)[C@H](CC1CCCCC1)NC(=O)[C@H](CCC(N)=O)NC(C)=O)C(=O)N[C@@H](CC(C)C)C(=O)N[C@@H](Cc1ccccc1)C(=O)O | Beta sliding clamp (Escherichia coli, UniProt P0A988, H175G) | binding, isothermal titration calorimetry | – | concentration not given, 25 °C, H175G mutant peptide | reference: wild-type peptide | KD fold reduction | 4 fold |
| O=C(CCCOc1ccc(Cl)cc1)N[C@H]1CCOC1=O | lasR | reporter gene, agonist | Pseudomonas aeruginosa PAO-JP2 | 100 µM, plasI-LVAgfp reporter | reference: OdDHL at same concentration | agonist activity | 3% |
| COc1ccccc1-c1n[nH]c2nc(N[C@H]3CC[C@H](NS(=O)(=O)CC(C)C)CC3)ncc12 | cdc2-related kinase 12 (Leishmania donovani, UniProt A0A3S7WQK2) | competitor, bead pull-down competition | Leishmania donovani extract | 0.4 µM | reference: vehicle | remaining binding | 13% |
| CN(C)CCCSC(=S)N1CCN(C(=O)/C=C/c2coc3ccccc3c2=O)CC1 | Nucleoprotein (N, Tomato spotted wilt virus, UniProt P25999, R94A/Y184A) | binding, microscale thermophoresis | – | 125 µM | dose series | MST response | 1.09 a.u. |
| Cc1ccc(OS(=O)(=O)F)c(C(=O)Nc2ccncc2)c1 | Uncharacterized hydrolase SAUSA300_2518 | enzyme activity, inhibitor, fluorogenic substrate | – | 50 µM | – | remaining activity | 35% and 35.2% and 36.6% |
| CC(C)[C@H]1NC(=O)C[C@H]2/C=C/CCSSC[C@@H](NC1=O)C(=O)N[C@H](Cc1cccc3ccccc13)C(=O)NCC(=O)O2 | FLT4 (Homo sapiens, UniProt P35916) | enzyme activity, inhibitor | – | 10 µM | – | inhibition | -1.7% |
| C#CCCCCOc1ccc2c(c1)CCCN2C(=O)CCl | Patatin-like phospholipase domain-containing protein 2 (Homo sapiens, UniProt Q96AD5) | mass spectrometry profiling, measured: PNPLA2 | H460 cell lysate | 100 µM over 10 µM, UniProt Q96AD5 | reference: high over low concentration | reactivity ratio | 1.6 |
| CSCC[C@@H]1NC(=O)[C@H](Cc2ccccc2)NC(=O)[C@@H](NC(=O)[C@H](C)N)CSC(=O)[C@H](C(C)C)NC(=O)[C@H](Cc2ccccc2)NC1=O | Histidine kinase AgrC (Listeria monocytogenes, UniProt A8E0G3) | agr reporter gene, agonist | – | – | – | concentration for full activation | 1 µM |
| N#Cc1cccc(CC(=O)N[C@H]2CCOC2=O)c1 | sdiA | – | – | – | – | Emax | 106% |
| CC(C)C[C@@H]1NC(=O)[C@H](C(C)C)NC(=O)[C@H](CCC(=O)O)NC(=O)CNC(=O)[C@H]([C@@H](C)O)NC(=O)[C@H](CCC(=O)O)NC(=O)[C@H](CCC(=O)O)NC(=O)[C@H](CC(=O)O)NC(=O)[C@H](C(C)C)NC(=O)[C@H]([C@@H](C)O)NC(=O)CNC(=O)[C@H](CC(=O)O)NC(=O)[C@@H]2CCCN2C1=O | KEAP1 | Keap1-Nrf2 binding, inhibitor, competitive FP | – | 0.3906 µM, 30 min, added: Nrf2 peptide probe | lower = stronger inhibition | fluorescence polarization | 0.197 a.u. |
| C[C@@H](O)[C@@H]1CN([C@@H](CC2CCCCC2)CN2CCC[C@H]2CN2CCNC[C@@H]2CO)CCN1CCc1ccc(Cl)c(Cl)c1 | Oprm1 | radioligand binding | rat brain membranes | 500 nM, pH 7.5, 25 °C, added: 0.87 nM [3H]DAMGO | – | remaining binding | 104 ± 9.57% |
| CCCCCCCCCNC(=O)CC(=O)c1ccccc1 | lasR | reporter gene, antagonist | – | – | reference: IC50 PAO-JP2 over E. coli JLD271 | potency ratio | 2.3 |
| CS(C)(=O)=Nc1ccc(-c2ccc(-c3nc4cc(O[C@@H]5CO[C@H]6[C@@H]5OC[C@H]6O)[nH]c4cc3F)cc2)cc1 | PIP5K1A (Homo sapiens, UniProt Q99755) | enzyme activity, inhibitor | – | 10 µM | – | inhibition | -3% |
| CN(C)[C@H]1C[C@@]23CC[C@@]4(O2)C(=CC[C@]2(C)[C@@H](c5ccc6ccncc6c5)CC[C@H]24)C=C3[C@@H](O)[C@@H]1O | RAF1 (Homo sapiens, UniProt P04049) | ATP probe labelling, inhibitor, KiNativ profiling | – | 0.1 µM | – | inhibition | -21.5% |
| CN(/N=C/c1ccccc1C(=O)O)c1nc(-c2ccccc2Cl)cs1 | CSNK2A1 (Homo sapiens, UniProt P68400) | enzyme activity, inhibitor | – | 1 µM | – | inhibition | -24.2% |
| CCCC[C@H]1CNCCN1C[C@@H]1CCCN1C[C@H](CC1CCCCC1)N1CCN(CCC23CC4CC(CC(C4)C2)C3)[C@H]([C@@H](C)O)C1 | Oprm1 | radioligand binding | rat brain membranes | 500 nM, pH 7.5, 25 °C, added: 0.87 nM [3H]DAMGO | – | remaining binding | 103 ± 6.8% |
| CC(C)CC(O)(CC(C)C)c1cn(C(=O)N2CCCC2)nn1 | Protein ABHD13 (Abhd13, Mus musculus, UniProt Q80UX8) | probe labelling, inhibitor, competitive ABPP-SILAC, measured: Abhd13 | mouse T cells | concentration not given, 4 h, in situ, protein level | reference: treated over DMSO, lower = more inhibition | SILAC ratio | 1.29 |
| CCOC(=O)[C@@H]1Cc2c(cc([N+](=O)[O-])cc2[N+](=O)[O-])[C@H](O)[C@]12C(=O)Nc1ccc(Br)cc12 | CSNK1D | binding, competition with immobilised ligand | – | 0.1 µM | – | remaining binding | 61% |
| C[C@H](NCc1ccc(-c2ccc(C(F)(F)F)cc2)cc1)C(N)=O | CSNK1D | cell-free assay, competition with immobilised ligand | – | 1 µM | – | inhibition | 0% |
| O=S(=O)(F)c1cccc2c1OCC2 | Uncharacterized hydrolase SAUSA300_2518 | enzyme activity, inhibitor, fluorogenic substrate | – | 0.01 µM | – | remaining activity | 110% |
| O=C1NC(=O)c2c1c1cc(F)c[n+]3c1c1c2c2cc(O)ccc2[n]1[Ru-4]312([N]=C=S)[S+]3CC[S+]1CC[S+]2CC3 (stereo not drawn) | Protein kinase C beta type, isoform beta-II (PRKCB, Homo sapiens, UniProt P05771) | enzyme activity | – | 100 nM, human enzyme, added: 10 µM ATP | reference: untreated | remaining activity | 76% |
| Cc1ccc(NCCN(C)C)c2c(=O)c3cc(O)ccc3sc12 | Tumor susceptibility gene 101 protein (Homo sapiens, UniProt Q99816) | thermal stability | – | 800 µM | – | ΔTm | 11.1 °C |
| CCCCCCCCCC(=O)CC(=O)Nc1ccccc1O | lasR | lasI-gfp reporter, antagonist | Pseudomonas aeruginosa PAO-JP2 | added: OdDHL 150 nM | – | IC50 | inactive |
| C[C@@H](O)[C@@H]1CN([C@@H](CC2CCCCC2)CN2CCC[C@H]2CN2CCNC[C@@H]2Cc2ccc3ccccc3c2)CCN1CCCC1CCCC1 | Oprm1 | radioligand binding | rat brain membranes | 500 nM, pH 7.5, 25 °C, added: 0.87 nM [3H]DAMGO | – | remaining binding | 103 ± 7.7% |
| O=C(N1CCCCC1)n1ccnn1 | Pnpla8 (Mus musculus, UniProt Q8K1N1) | enzyme activity, inhibitor, competitive ABPP-SILAC | mouse T-cells | concentration not given, 4 h, treated in situ | reference: DMSO | activity ratio | 2.11 |

Some of these lines once more:
| Compound | target | assay | test system | setting | how to read | endpoint | value |
| --- | --- | --- | --- | --- | --- | --- | --- |
| CCOC(=O)[C@@H]1Cc2c(cc([N+](=O)[O-])cc2[N+](=O)[O-])[C@H](O)[C@]12C(=O)Nc1ccc(Br)cc12 | CSNK1D | binding, competition with immobilised ligand | – | 0.1 µM | – | remaining binding | 61% |
| N[C@H](C(=O)N1CCCC1)C1CCN(c2nccc3c(-c4ncc(Cl)cc4Cl)cccc23)CC1 | PADI2 (Homo sapiens, UniProt Q9Y2J8) | enzyme activity | – | 0.6144 µM, low-affinity site, added: Ca2+ 0.25 mM | – | kcat | 0.175 s⁻¹ and 0.117 s⁻¹ |
